Measured values gathered from unrelated publications.
Each line is one published result; not all experiments were run side by side.
Organism: Staphylococcus aureus

SMILES | test | test system | conditions | MIC
CC[C@H](C)[C@H](NC(=O)CN)C(=O)N[C@@H](C)C(=O)N[C@@H](CCCCN)C(=O)N[C@@H](Cc1ccccc1)C(=O)N[C@H](C(=O)N[C@@H](CCCCN)C(=O)N[C@@H](CCCCN)C(=O)N[C@H](C(=O)N[C@@H](C)C(=O)N[C@@H](CCCCN)C(=O)N[C@@H](C)C(=O)N[C@@H](CC(C)C)C(=O)N[C@@H](CCCNC(=N)N)C(N)=O)[C@@H](C)CC)[C@@H](C)CC |  | ATCC 29213, Mueller-Hinton broth | 12 h, 37 °C | 8 µg/mL
CCCCCCCCCCCCN(C)C(=O)CP(=O)(O)O |  | ATCC 33591 methicillin-resistant |  | 200 µg/mL
COc1ccc2ccc(O)c(/C=N/[C@H]3CCCC[C@H]3/N=C/c3ccc(OCCN4CCCCC4)cc3O)c2c1 | bacterial growth, broth microdilution | vancomycin-intermediate |  | > 40 µM
CCCCCCC#Cc1cncc(-c2nnc(SCc3cc([N+](=O)[O-])cc([N+](=O)[O-])c3)n2CCCN)c1 | broth microdilution | Mu50 MRSA VISA | 18 to 24 h, 37 °C | 8 µg/mL
CC[C@H](C)[C@H](NC(=O)[C@H](CCCNC(=N)N)NC(=O)[C@H](CCCNC(=N)N)NC(=O)[C@H](CCCNC(=N)N)NC(=O)[C@H](CCCNC(=N)N)NC(=O)[C@H](CCCNC(=N)N)NC(=O)[C@@H](N)CCCNC(=N)N)C(=O)N[C@@H](CO)C(=O)N[C@@H](Cc1ccccc1)C(=O)N[C@@H](CC(C)C)C(=O)NCC(=O)N[C@@H](CO)C(=O)N[C@@H](CCCCN)C(=O)N[C@@H](CCCCN)C(=O)N[C@@H](CCCCN)C(=O)N[C@@H](CCCCN)C(=O)N[C@@H](CCCCN)C(=O)N[C@@H](CC(C)C)C(=O)N[C@@H](CC(C)C)C(=O)N[C@@H](CCCCN)C(=O)N[C@@H](CCCNC(=N)N)C(N)=O | broth microdilution | ATCC 29213 | highest value reported | 64 µM
CC[C@H](C)[C@H](NC(=O)[C@H](Cc1c[nH]c2ccccc12)NC(=O)[C@@H](NC(=O)[C@H](Cc1ccccc1)NC(=O)[C@@H]1CCCN1C(=O)[C@@H](NC(=O)[C@H](C)N)[C@@H](C)CC)[C@@H](C)CC)C(=O)N[C@@H](Cc1ccccc1)C(=O)N[C@@H](CCCNC(=N)N)C(=O)N[C@@H](CC(C)C)C(=O)N[C@@H](CC(C)C)C(=O)N[C@@H](CCCNC(=N)N)C(=O)N[C@@H](CCCCN)C(=O)NCC(N)=O | broth microdilution | ATCC 19609 | 18 h, 37 °C | 3.75 µM
CC[C@H](C)[C@H](NC(=O)[C@H](CC(C)C)NC(=O)[C@H](CCCNC(=N)N)NC(=O)[C@@H](N)CCCNC(=N)N)C(=O)N[C@@H](CCCNC(=N)N)C(=O)N[C@@H](CCCCN)C(=O)N[C@@H](CC(C)C)C(=O)N[C@@H](CCCCN)C(=O)NCC(=O)N[C@@H](CC(C)C)C(=O)N[C@@H](CCCCN)C(=O)N[C@@H](CCCCN)C(=O)N[C@@H](Cc1ccc(O)cc1)C(=O)N[C@@H](CC(C)C)C(=O)N[C@@H](Cc1ccc(O)cc1)C(=O)N[C@@H](Cc1ccccc1)C(=O)N[C@@H](CCCCN)C(=O)N[C@@H](CC(C)C)C(=O)N[C@@H](CCC(N)=O)C(=O)N[C@@H](CC(C)C)C(=O)N[C@@H](CC(C)C)C(=O)N[C@@H](CCCCN)C(=O)N[C@@H](CCCCN)C(N)=O | broth microdilution | KCTC 1621, Mueller-Hinton broth | no added salt | 4 µM
CC[C@H](C)[C@H](NC(=O)[C@H](CCCCN)NC(=O)[C@@H](NC(=O)[C@@H](NC(=O)[C@H](CC(C)C)NC(=O)[C@H](CCCNC(=N)N)NC(=O)[C@@H](NC(=O)[C@H](CC(C)C)NC(=O)[C@H](CCCNC(=N)N)NC(=O)CNC(=O)[C@H](Cc1ccccc1)NC(=O)[C@@H](N)CCCNC(=N)N)[C@@H](C)CC)[C@@H](C)CC)C(C)C)C(=O)N[C@@H](C)C(=O)N[C@@H](CCCNC(=N)N)C(=O)N[C@@H](CCCNC(=N)N)C(=O)N[C@@H](C)C(=O)N[C@@H](Cc1c[nH]cn1)C(=O)N[C@@H](CCCNC(=N)N)C(=O)N[C@@H](C)C(=O)N[C@@H](CCCNC(=N)N)C(=O)N[C@@H](CO)C(=O)N[C@@H](C)C(=O)N[C@H](C(=O)N[C@@H](CCCCN)C(=O)N[C@@H](C)C(=O)N[C@@H](C)C(=O)N[C@@H](CO)C(=O)N[C@@H](CC(N)=O)C(=O)N[C@H](C(=O)N[C@@H](C)C(=O)N[C@@H](CCC(=O)O)C(=O)N[C@@H](CC(C)C)C(=O)N[C@@H](C)C(=O)N[C@@H](Cc1c[nH]cn1)C(=O)NCC(=O)N[C@@H](CCC(=O)O)C(=O)O)C(C)C)C(C)C | broth microdilution |  | 18 h, 37 °C | ≤ 0.062 µM
CC[C@H](C)[C@H](N)C(=O)N[C@@H](CC(C)C)C(=O)NCC(=O)N[C@H](CCCNC(=N)N)C(=O)N[C@H](C(=O)N[C@@H](Cc1ccccc1)C(=O)N[C@@H](CCCCN)C(=O)NCC(=O)N[C@H](C(=O)N[C@@H](CCCCN)C(=O)N[C@@H](CC(=O)O)C(=O)N[C@H](C(=O)N[C@@H](CC(C)C)C(N)=O)[C@@H](C)CC)[C@@H](C)CC)[C@@H](C)CC | broth microdilution | ATCC 25923, Mueller-Hinton broth | 16 h, 37 °C | 12.5 µM
CC[C@H](C)[C@H](NC(=O)CNC(=O)[C@H](C)NC(=O)[C@@H](NC(=O)[C@@H](NC(=O)[C@@H](NC(=O)[C@@H](NC(=O)[C@@H](NC(=O)[C@H](CC(C)C)NC(=O)[C@H](CC(C)C)NC(=O)[C@@H]1CCCN1C(=O)[C@H](Cc1c[nH]c2ccccc12)NC(=O)[C@@H](N)Cc1ccccc1)[C@@H](C)CC)[C@@H](C)O)[C@@H](C)O)C(C)C)C(C)C)C(=O)N[C@@H](CC(N)=O)C(=O)N[C@@H](CC(C)C)C(=O)N[C@@H](Cc1ccc(O)cc1)C(=O)N[C@@H](CCCNC(=N)N)C(=O)N[C@@H](C)C(=O)N[C@H](C(=O)N[C@@H](CCCNC(=N)N)C(=O)N[C@@H](CCCNC(=N)N)C(=O)N[C@@H](CCCCN)C(=O)O)[C@@H](C)CC | broth microdilution | ATCC 29213, Mueller-Hinton broth | 16 to 20 h, 37 °C | 1.69 µM
Cc1ccc2[nH]c3c(c2c1)CCCC3NCCc1ccc(Br)cc1 (stereo not shown) | broth microdilution | Mu50 VISA |  | 4 µg/mL
CC[C@H](C)[C@H](NC(=O)[C@H](CC(C)C)NC(=O)[C@H](CCCNC(=N)N)NC(=O)[C@@H](N)CCCNC(=N)N)C(=O)N[C@@H](CC(C)C)C(=O)N[C@H](C(=O)N[C@@H](CCCCN)C(=O)N[C@H](C(=O)NCC(=O)N1CCC[C@H]1C(=O)N[C@H](C(=O)N[C@H](C(=O)N[C@@H](Cc1ccc(O)cc1)C(=O)N[C@@H](CCCCN)C(=O)N[C@@H](Cc1ccc(O)cc1)C(=O)N[C@@H](Cc1ccccc1)C(=O)N[C@@H](CCCCN)C(=O)N[C@@H](CCCCN)C(=O)N[C@@H](CCC(N)=O)C(=O)N[C@@H](CC(C)C)C(=O)N[C@@H](CCCCN)C(=O)N[C@@H](CCCCN)C(=O)N[C@@H](CC(C)C)C(N)=O)[C@@H](C)CC)[C@@H](C)CC)[C@@H](C)O)[C@@H](C)O |  | CCARM 3089, methicillin-resistant, Mueller-Hinton broth | 24 h | 32 µM
CCCCCCCCCC(=O)N[C@@H](Cc1c[nH]c2ccccc12)C(=O)N[C@H](CC(N)=O)C(=O)N[C@@H](CC(=O)O)C(=O)N[C@@H]1C(=O)NCC(=O)N[C@@H](CCCN)C(=O)N[C@@H](CC(=O)O)C(=O)N[C@H](C)C(=O)N[C@@H](CC(=O)O)C(=O)NCC(=O)N[C@H](CO)C(=O)N[C@@H]([C@H](C)CC(=O)O)C(=O)N[C@@H](CC(=O)c2ccccc2N)C(=O)O[C@@H]1C |  | mecA−, antibiotic-susceptible |  | 4 µg/mL

Excerpt of the above:
SMILES | test | test system | conditions | MIC
CC[C@H](C)[C@H](NC(=O)[C@H](CC(C)C)NC(=O)[C@H](CCCNC(=N)N)NC(=O)[C@@H](N)CCCNC(=N)N)C(=O)N[C@@H](CC(C)C)C(=O)N[C@H](C(=O)N[C@@H](CCCCN)C(=O)N[C@H](C(=O)NCC(=O)N1CCC[C@H]1C(=O)N[C@H](C(=O)N[C@H](C(=O)N[C@@H](Cc1ccc(O)cc1)C(=O)N[C@@H](CCCCN)C(=O)N[C@@H](Cc1ccc(O)cc1)C(=O)N[C@@H](Cc1ccccc1)C(=O)N[C@@H](CCCCN)C(=O)N[C@@H](CCCCN)C(=O)N[C@@H](CCC(N)=O)C(=O)N[C@@H](CC(C)C)C(=O)N[C@@H](CCCCN)C(=O)N[C@@H](CCCCN)C(=O)N[C@@H](CC(C)C)C(N)=O)[C@@H](C)CC)[C@@H](C)CC)[C@@H](C)O)[C@@H](C)O |  | CCARM 3089, methicillin-resistant, Mueller-Hinton broth | 24 h | 32 µM
CC[C@H](C)[C@H](NC(=O)[C@H](CC(C)C)NC(=O)[C@H](CCCNC(=N)N)NC(=O)[C@@H](N)CCCNC(=N)N)C(=O)N[C@@H](CCCNC(=N)N)C(=O)N[C@@H](CCCCN)C(=O)N[C@@H](CC(C)C)C(=O)N[C@@H](CCCCN)C(=O)NCC(=O)N[C@@H](CC(C)C)C(=O)N[C@@H](CCCCN)C(=O)N[C@@H](CCCCN)C(=O)N[C@@H](Cc1ccc(O)cc1)C(=O)N[C@@H](CC(C)C)C(=O)N[C@@H](Cc1ccc(O)cc1)C(=O)N[C@@H](Cc1ccccc1)C(=O)N[C@@H](CCCCN)C(=O)N[C@@H](CC(C)C)C(=O)N[C@@H](CCC(N)=O)C(=O)N[C@@H](CC(C)C)C(=O)N[C@@H](CC(C)C)C(=O)N[C@@H](CCCCN)C(=O)N[C@@H](CCCCN)C(N)=O | broth microdilution | KCTC 1621, Mueller-Hinton broth | no added salt | 4 µM
